Published values from different studies.
Compare with care: the assays were run in different laboratories. ± marks the error that the study gave.

Structure (SMILES) | test | test system | conditions | scale | endpoint | result
CC[C@H]1[C@@H](O)[C@@H]2[C@H](CC[C@]3(C)[C@@H]([C@H](C)CCOS(=O)(=O)[O-])CC[C@@H]23)[C@@]2(C)CC[C@@H](O)C[C@@H]12.[Na+] | – | ob/ob NASH mice, plasma | oral, 10 mg/kg once daily, baseline before treatment, 8 wk study | – | plasma total cholesterol | 11.1 ± 0.3 mmol/L
CC(=O)Oc1cc2c(s1)CCN(C(C(=O)C1CC1)c1ccccc1F)C2 (centres unmarked) | ADP-induced platelet aggregation, LTA, >59% aggregation | human patients, platelet-rich plasma | dose not given, 3 h, added: ADP 20 µM | – | patients with high reactivity | 29%
CC(C)[C@H](NC(=O)CN)C(=O)N[C@@H](CCCCN)C(=O)NCC(=O)N[C@@H](CC(=O)O)C(=O)N[C@@H](CCCCN)C(=O)NCC(=O)N[C@@H](CC(N)=O)C(=O)N1CCC[C@H]1C(=O)NCC(=O)N[C@@H](Cc1c[nH]c2ccccc12)C(=O)N1CCC[C@H]1C(=O)NCC(=O)N[C@@H](C)C(=O)N1CCC[C@H]1C(=O)O | – | K1735 M4 melanoma, mouse | 10 µg/mL coating, 30 to 40 min, 37 °C, peptide-coated plates | reference: input cells | cell adhesion | ~35%
C=C(c1cc(F)c(C(=O)O)c(F)c1)c1cc2c(cc1C)C(C)(C)CCC2(C)C | RNA sequencing, item: Acot1 mRNA | rat, brain | dose not given, 24 h, single dose | reference: vehicle | log2 fold change | -0.02
O/N=C/c1cnn(-c2ccccc2)n1 | prothrombin time | human plasma | 10 µM | – | clotting time | 15.2 ± 0.5 s
CN(Cc1ccc(/C=C/C(=O)Nc2ccccc2N)cc1)CC12CC3CC(CC(C3)C1)C2 | forced swim test | rat | i.p., 0.1 mg/kg, 7 days | reference: vehicle | immobility time reduction | 17%
O=C(/C=C/c1ccccc1)OCCCC[P+](c1ccccc1)(c1ccccc1)c1ccccc1 | TBARS | energized rat liver mitochondria | 6 µM, added: FeCl2/ascorbate | – | lipid peroxidation inhibition | no effect
COc1ccc(-n2cc(CO)nn2)cc1 | prothrombin time | human plasma | 1 µM | – | clotting time | 15.8 ± 1 s
COc1ccc2c(c1)c(CC(=O)OCOC(C)=O)c(C)n2C(=O)c1ccc(Cl)cc1 | hot plate test | BALB/c mice | 100 mg/kg, 30 min | – | latency of nociceptive response | 17.4 ± 0.86 s
CCC(NC(=O)C(CC(C)C)NC(=O)CCc1ccccc1)C(=O)C(=O)NCc1cc(F)cc(OC)c1 (centres unmarked) | TUNEL | mouse traumatic brain injury model (controlled cortical impact) | up to 10 mg/kg | – | neuronal damage | no effect
CC(=O)c1cnc(N)nc1N1CC[C@H]1c1nn2ccc(Cl)c2c(=O)n1-c1ccccc1 | anti-IgD B cell activation, item: CD86 | rat, blood | oral, 1 mg/kg, up to 24 h | – | inhibition | ~40%
